Experimental data gathered from unrelated publications.
Each line is one published result; not all experiments were run side by side. ± gives the spread as reported.
ESR2: Estrogen receptor beta (ESR2, Homo sapiens, UniProt Q92731)
Sequence of UniProt Q92731 (whole entry, looked up): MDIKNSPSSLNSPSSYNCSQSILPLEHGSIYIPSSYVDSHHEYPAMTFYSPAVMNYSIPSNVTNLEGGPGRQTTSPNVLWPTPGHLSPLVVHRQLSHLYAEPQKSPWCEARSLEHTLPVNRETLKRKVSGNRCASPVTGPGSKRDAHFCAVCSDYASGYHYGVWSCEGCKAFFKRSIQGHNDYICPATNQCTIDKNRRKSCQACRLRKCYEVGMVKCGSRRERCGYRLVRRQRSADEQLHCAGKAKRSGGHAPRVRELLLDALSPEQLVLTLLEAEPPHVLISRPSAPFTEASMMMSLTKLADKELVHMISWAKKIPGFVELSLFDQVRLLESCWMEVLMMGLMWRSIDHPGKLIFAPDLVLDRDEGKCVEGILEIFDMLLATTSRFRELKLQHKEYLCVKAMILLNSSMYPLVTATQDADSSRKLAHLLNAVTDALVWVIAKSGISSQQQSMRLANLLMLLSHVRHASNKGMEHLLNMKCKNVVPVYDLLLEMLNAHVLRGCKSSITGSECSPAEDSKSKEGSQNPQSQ
GPR84: G-protein coupled receptor 84 (GPR84, Homo sapiens, UniProt Q9NQS5)
Sequence of UniProt Q9NQS5 (whole entry, looked up): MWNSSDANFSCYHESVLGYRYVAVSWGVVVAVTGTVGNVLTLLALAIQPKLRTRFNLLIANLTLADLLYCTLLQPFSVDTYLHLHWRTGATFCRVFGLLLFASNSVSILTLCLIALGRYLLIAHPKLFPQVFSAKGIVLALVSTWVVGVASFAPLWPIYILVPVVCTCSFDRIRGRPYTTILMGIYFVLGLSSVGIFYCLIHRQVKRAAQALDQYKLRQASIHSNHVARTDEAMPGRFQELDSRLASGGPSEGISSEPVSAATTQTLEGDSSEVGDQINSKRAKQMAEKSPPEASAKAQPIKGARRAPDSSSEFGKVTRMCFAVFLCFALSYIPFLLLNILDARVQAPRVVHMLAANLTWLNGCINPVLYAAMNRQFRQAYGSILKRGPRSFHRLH
MIF: Macrophage migration inhibitory factor (MIF, Homo sapiens, UniProt P14174)
Sequence of UniProt P14174 (whole entry, looked up): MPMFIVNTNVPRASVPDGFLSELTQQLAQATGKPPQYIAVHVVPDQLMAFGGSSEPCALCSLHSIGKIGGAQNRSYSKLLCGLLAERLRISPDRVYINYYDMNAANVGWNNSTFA
HTR2C: 5-hydroxytryptamine receptor 2C (HTR2C, Homo sapiens, UniProt P28335)
Sequence of UniProt P28335 (whole entry, looked up): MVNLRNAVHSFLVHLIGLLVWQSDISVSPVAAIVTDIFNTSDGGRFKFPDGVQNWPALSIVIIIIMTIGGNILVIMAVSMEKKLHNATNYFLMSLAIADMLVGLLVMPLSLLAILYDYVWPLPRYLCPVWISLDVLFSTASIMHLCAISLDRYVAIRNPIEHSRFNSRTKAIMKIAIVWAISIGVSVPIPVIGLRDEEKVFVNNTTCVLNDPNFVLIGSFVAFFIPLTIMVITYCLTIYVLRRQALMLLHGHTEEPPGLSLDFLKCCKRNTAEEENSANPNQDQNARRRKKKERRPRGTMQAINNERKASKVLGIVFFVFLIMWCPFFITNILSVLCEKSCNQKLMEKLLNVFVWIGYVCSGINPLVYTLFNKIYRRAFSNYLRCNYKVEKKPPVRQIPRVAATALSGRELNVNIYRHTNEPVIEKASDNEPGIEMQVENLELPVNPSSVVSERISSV
Sequence of UniProt E2JF22 (whole entry, looked up): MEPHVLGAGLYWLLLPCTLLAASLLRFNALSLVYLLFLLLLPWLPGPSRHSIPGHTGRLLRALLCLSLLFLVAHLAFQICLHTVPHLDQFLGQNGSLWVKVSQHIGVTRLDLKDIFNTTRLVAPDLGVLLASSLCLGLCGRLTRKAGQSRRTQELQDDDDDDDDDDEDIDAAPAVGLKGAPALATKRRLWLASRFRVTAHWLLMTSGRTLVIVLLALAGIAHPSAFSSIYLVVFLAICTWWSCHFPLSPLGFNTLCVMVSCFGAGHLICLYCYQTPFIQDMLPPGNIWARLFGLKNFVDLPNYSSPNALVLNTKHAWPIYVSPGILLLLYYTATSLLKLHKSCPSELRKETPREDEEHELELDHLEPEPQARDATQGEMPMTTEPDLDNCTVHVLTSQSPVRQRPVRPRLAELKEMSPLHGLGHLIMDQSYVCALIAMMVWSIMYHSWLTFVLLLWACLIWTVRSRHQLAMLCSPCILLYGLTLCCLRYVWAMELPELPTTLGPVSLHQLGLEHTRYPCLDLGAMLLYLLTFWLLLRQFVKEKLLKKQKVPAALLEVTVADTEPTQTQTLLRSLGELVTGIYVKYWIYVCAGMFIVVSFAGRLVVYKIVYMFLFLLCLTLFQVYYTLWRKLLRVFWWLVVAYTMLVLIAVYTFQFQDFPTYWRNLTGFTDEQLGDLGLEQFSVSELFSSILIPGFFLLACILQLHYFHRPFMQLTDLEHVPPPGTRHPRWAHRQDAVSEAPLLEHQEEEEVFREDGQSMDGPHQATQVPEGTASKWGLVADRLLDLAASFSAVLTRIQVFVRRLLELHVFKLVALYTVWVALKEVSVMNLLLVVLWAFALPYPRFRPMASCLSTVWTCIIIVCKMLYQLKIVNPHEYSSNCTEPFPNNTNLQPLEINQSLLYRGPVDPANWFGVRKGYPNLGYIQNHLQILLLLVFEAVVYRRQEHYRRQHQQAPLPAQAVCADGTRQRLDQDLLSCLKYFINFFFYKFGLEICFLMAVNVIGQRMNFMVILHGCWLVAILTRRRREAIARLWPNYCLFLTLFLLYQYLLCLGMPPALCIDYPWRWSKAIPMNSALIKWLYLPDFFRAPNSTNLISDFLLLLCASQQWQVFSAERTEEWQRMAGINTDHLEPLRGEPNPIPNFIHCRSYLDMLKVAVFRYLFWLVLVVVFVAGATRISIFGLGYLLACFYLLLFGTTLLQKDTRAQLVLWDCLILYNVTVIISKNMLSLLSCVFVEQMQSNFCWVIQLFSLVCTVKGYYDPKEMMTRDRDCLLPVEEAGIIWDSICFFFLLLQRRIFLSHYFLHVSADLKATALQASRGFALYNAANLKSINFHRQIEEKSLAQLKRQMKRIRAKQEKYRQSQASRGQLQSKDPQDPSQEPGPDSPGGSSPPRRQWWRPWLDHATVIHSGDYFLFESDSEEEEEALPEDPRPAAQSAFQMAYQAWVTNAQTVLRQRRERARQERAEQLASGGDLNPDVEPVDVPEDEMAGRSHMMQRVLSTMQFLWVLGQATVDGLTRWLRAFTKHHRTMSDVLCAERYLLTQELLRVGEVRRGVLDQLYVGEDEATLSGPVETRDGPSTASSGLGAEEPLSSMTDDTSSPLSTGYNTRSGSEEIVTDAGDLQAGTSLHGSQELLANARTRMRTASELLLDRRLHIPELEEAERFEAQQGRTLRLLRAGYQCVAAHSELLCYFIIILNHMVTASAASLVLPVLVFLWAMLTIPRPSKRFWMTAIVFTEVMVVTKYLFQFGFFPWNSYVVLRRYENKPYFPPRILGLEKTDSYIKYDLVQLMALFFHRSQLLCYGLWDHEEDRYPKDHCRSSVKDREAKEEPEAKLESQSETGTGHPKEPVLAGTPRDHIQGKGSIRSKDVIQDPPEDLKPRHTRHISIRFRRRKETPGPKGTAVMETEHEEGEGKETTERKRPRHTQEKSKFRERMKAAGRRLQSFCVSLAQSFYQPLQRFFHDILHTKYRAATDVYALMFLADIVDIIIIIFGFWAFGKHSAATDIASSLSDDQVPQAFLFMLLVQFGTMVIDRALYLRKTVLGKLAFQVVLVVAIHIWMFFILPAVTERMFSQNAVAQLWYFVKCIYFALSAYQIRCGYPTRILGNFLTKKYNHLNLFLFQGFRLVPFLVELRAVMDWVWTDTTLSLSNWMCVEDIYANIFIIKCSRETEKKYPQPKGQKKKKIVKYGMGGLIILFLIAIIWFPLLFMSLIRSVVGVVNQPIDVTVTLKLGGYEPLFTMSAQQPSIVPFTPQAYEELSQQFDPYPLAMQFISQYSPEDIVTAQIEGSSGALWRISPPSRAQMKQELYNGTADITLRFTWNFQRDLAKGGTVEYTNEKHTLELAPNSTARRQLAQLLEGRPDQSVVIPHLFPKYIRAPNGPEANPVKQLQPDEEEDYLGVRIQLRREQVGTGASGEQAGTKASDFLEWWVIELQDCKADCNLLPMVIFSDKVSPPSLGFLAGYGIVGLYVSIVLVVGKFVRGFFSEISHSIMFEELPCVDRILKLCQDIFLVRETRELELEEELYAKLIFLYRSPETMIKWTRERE
Sequence of UniProt Q92633 (whole entry, unmodified, looked up): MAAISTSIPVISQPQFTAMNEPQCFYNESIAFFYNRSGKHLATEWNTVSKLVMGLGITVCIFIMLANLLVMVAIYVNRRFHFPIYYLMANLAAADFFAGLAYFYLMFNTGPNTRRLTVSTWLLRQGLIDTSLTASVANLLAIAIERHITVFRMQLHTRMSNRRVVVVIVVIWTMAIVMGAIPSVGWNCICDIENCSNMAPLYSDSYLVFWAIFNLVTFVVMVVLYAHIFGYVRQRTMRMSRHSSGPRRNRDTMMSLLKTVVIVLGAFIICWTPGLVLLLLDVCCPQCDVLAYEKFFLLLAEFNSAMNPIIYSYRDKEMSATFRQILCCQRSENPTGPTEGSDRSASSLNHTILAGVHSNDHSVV
Sequence of UniProt P35414 (whole entry, looked up): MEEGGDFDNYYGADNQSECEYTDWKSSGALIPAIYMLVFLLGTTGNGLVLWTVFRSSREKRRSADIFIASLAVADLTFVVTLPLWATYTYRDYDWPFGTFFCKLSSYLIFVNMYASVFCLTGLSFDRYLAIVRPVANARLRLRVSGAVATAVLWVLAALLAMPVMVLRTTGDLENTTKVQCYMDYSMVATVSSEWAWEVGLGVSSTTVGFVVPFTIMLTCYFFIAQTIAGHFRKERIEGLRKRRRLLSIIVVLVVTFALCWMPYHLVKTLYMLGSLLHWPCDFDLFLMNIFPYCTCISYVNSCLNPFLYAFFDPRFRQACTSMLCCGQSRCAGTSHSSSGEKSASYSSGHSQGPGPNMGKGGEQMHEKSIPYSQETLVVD

For `O=c1cc(-c2ccccc2)oc2cc(O)cc(O)c12`, the EC50 was 4.28 µM (ESR2; array formation, agonist; GFP-ERβ PRL-HeLa; 1 h).
The EC50 of `Clc1cccc(Cl)c1CSc1nnc(-c2cnccn2)s1` is reported as 18.4 ± 8.8 µM (Piezo-type mechanosensitive ion channel component 1 (Piezo1, Mus musculus, UniProt E2JF22); agonist).
With `C#Cc1ccc(-c2ccc(C(=O)N[C@@H](CCCN=C(N)CCl)c3nc4ccccc4[nH]3)cc2)cc1` the EC50 was 0.8 µM (Stimulator of interferon genes protein (STING1, Homo sapiens, UniProt Q86WV6, G230A/H232R/R293Q/R71H); IRF reporter gene, inhibitor; THP-1 Dual; with: diABZI).
The EC50 of `CCCCCNc1cc(=O)[nH]c(=O)[nH]1` is reported as 0.457 µM (GPR84; cAMP).
`COc1cc(C2Oc3ccc([C@H]4Oc5cc(O)cc(O)c5C(=O)[C@@H]4O)cc3OC2CO)ccc1O` (stereo partly drawn) gave an EC50 of 1.1 µM (ESR2; array formation, agonist; GFP-ERβ PRL-HeLa; 1 h).
For `COc1ccc(Br)c(CNc2cccnc2)c1`, the EC50 was 0.017 µM (Melatonin receptor type 1A (Mtnr1a, Mus musculus, UniProt Q61184); cAMP accumulation, agonist, GloSensor cAMP; HEK cells transiently transfected; with: isoproterenol).
`Oc1cc(O)c2c(c1)O[C@H](c1cc(O)c(O)c(O)c1)[C@@H](O)C2` has an EC50 of 5.35 µM (ESR2; array formation, agonist; GFP-ERβ PRL-HeLa; 1 h).
For `O=c1cc(NCCCCCCCO)[nH]c(=O)[nH]1`, the EC50 was 2.14 µM (GPR84; agonist).
With `CCc1oc2c([C@H](CO)N(CC)CC)cccc2c1C` the EC50 was 0.00676 µM (Lysophosphatidic acid receptor 1 (LPAR1, Homo sapiens, UniProt Q92633, W210A); Gi activation, agonist, NanoBiT G-protein dissociation; HEK293T; W210A mutant).
For `O=c1c(-c2ccc(O)cc2)coc2cc(O[C@@H]3O[C@H](CO)[C@@H](O)[C@H](O)[C@H]3O)cc(O)c12`, the EC50 was 0.782 µM (ESR2; array formation, agonist; GFP-ERβ PRL-HeLa; 1 h).
`CCOCc1nc(O)c(-c2nnc(Cc3ccc(Cl)cn3)o2)c(O)c1-c1c(OC)cccc1OC` gave an EC50 of 0.00023 ± 4e-05 µM (Apelin receptor (APLNR, Homo sapiens, UniProt P35414); GαoB activation, agonist, BRET biosensor; HEK293).
The EC50 of `N[C@@H](CCC(=O)O)C(=O)O` is reported as 230 µM (uncharacterized protein (Ixodes scapularis, UniProt A0A0N9E2I2); ion current, agonist, two-electrode voltage clamp; Xenopus oocytes; holding potential -80 mV; reference: 1 mM compound response).
`COc1ccc(-c2cc(=O)c3c(O)cc(O[C@@H]4O[C@H](CO)[C@@H](O)[C@H](O)[C@H]4O[C@@H]4O[C@@H](C)[C@H](O)[C@@H](O)[C@H]4O)cc3o2)cc1O` has an EC50 of 0.424 µM (ESR2; array formation, agonist; GFP-ERβ PRL-HeLa; 1 h).
With `NCC(=O)O` the EC50 was 189 ± 5.6 µM (Sodium- and chloride-dependent neutral and basic amino acid transporter B(0+) (Slc6a14, Mus musculus, UniProt Q9JMA9); transport current, substrate, two-electrode voltage clamp; Xenopus oocytes; holding potential -40 mV).
The EC50 of `COc1cc(Nc2ncc3c(n2)-c2ccc(Cl)cc2C(c2c(F)cccc2OC)=NC3)ccc1C(=O)NCCOCCOCCNC(=O)COc1cccc2c1C(=O)N(C1CCC(=O)NC1=O)C2=O` (stereo not drawn) is reported as 12.6 µM (Aurora kinase B (AURKB, Homo sapiens, UniProt Q96GD4); binding, kinobead competition; MV4-11 cell lysate).
The EC50 of `COc1ccc(N2Cc3ccc(O)cc3OC2=O)cc1OC` is reported as 0.316 ± 0.034 µM (MIF; binding, competitive inhibitor, fluorescent indicator displacement; biochemical; 10 min, MIF 100 nM, with: 7-hydroxycoumarin indicator 50 nM).
For `CCCCC[C@H](O)/C=C/[C@H]1[C@H](O)CC(=O)[C@@H]1C/C=C\CCCC(=O)O`, the EC50 was 0.00984 µM (Prostaglandin E2 receptor EP1 subtype (PTGER1, Homo sapiens, UniProt P34995, R355A); IP1 accumulation, agonist; AD293; EP1 R355A mutant).
`CCn1c(-c2nc3cc(C(=O)N4CCC[C@@H](N)C4)cc(OC)c3n2C)cc2cccnc21` gave an EC50 of > 39.8 µM (HTR2C; intracellular calcium, agonist, luminescence).
`CCCCCCNc1[nH]c(=O)[nH]c(=O)c1N=O` has an EC50 of 7.73 ± 0.54 µM (GPR84; cAMP level, agonist; human cells).
The EC50 of `COc1ccc(-c2oc3c(CC=C(C)C)c(O[C@@H]4O[C@H](CO)[C@@H](O)[C@H](O)[C@H]4O)cc(O)c3c(=O)c2O[C@@H]2O[C@@H](C)[C@H](O)[C@@H](O)[C@H]2O)cc1` is reported as 1.61 µM (ESR2; array formation, agonist; GFP-ERβ PRL-HeLa; 1 h).
The EC50 of `COc1ccc(CCNc2cc(=O)[nH]c(=O)[nH]2)cc1OC` is reported as 0.813 ± 0.229 µM (GPR84; cAMP level, agonist; human cells).
`O=C(NCc1cn(-c2ccc(O)c(F)c2)nn1)c1cc2cc(Cl)ccc2[nH]1` has an EC50 of 4.3 ± 0.4 µM (MIF; binding, competitive inhibitor, fluorescent indicator displacement; biochemical; 10 min, MIF 100 nM, with: 7-hydroxycoumarin indicator 50 nM).
`O=Nc1c(NCCCc2ccccc2)[nH]c(=O)[nH]c1=O` has an EC50 of 1.53 ± 0.11 µM (GPR84; cAMP level, agonist; human cells).
With `CCCCCCCP(=O)(C(C)C)C(C)C` the EC50 was 1.33 ± 0.1 µM (TRPM8 (Gallus gallus, UniProt A0AA95FIJ1); calcium influx, agonist, calcium imaging; 32 °C).
`Cc1cccc(CCNc2cc(=O)[nH]c(=O)[nH]2)c1` gave an EC50 of 0.782 ± 0.22 µM (GPR84; agonist).
`COc1ccc(-c2oc3cc(O)cc(O)c3c(=O)c2O)cc1` gave an EC50 of 0.744 µM (ESR2; array formation, agonist; GFP-ERβ PRL-HeLa; 1 h).
For `O=c1cc(NCCc2cccc(Br)c2)[nH]c(=O)[nH]1`, the EC50 was 0.0639 ± 0.0047 µM (GPR84; cAMP level, agonist; human cells).
With `CC1(C)C=Cc2c(ccc3c2OC[C@@H](c2ccc(O)cc2O)C3)O1` the EC50 was 1.99 µM (ESR2; array formation, agonist; GFP-ERβ PRL-HeLa; 1 h).
`CCCCCCCCNc1[nH]c(=O)[nH]c(=O)c1N=O` gave an EC50 of 0.417 µM (GPR84; agonist).
`CCn1c(-c2nc3ccc(C(=O)N4CCCC(N)C4)cc3n2C)cc2ccccc21` (stereo not drawn) has an EC50 of > 39.8 µM (HTR2C; intracellular calcium, agonist, luminescence).

Some of these lines once more:
With `C#Cc1ccc(-c2ccc(C(=O)N[C@@H](CCCN=C(N)CCl)c3nc4ccccc4[nH]3)cc2)cc1` the EC50 was 0.8 µM (Stimulator of interferon genes protein (STING1, Homo sapiens, UniProt Q86WV6, G230A/H232R/R293Q/R71H); IRF reporter gene, inhibitor; THP-1 Dual; with: diABZI).
The EC50 of `CCCCCNc1cc(=O)[nH]c(=O)[nH]1` is reported as 0.457 µM (GPR84; cAMP).
